Results from different studies.
Each numbered part is a random draw from the data of one study; scales do not carry over between parts. Positions count from the first letter of the parent shown.

Set 1
Target: RNA binding protein fox-1 homolog 2, RRM domain, GST-SBP tag (RBFOX2, Homo sapiens, UniProt O43251-10, residues 100-194)
Technique: RNA Bind-n-Seq
Form: RNA
Matrix: in vitro
Tested at: 365 nM
Notes: natural RNA segment, single round, ends assumed
Relative to: no-protein control
Reading: higher = stronger binding
Constant ends, left off below: GGGAGUUCUACAGUCCGACGAUC … UGGAAUUCUCGGGUGCCAA
Target sequence (chain): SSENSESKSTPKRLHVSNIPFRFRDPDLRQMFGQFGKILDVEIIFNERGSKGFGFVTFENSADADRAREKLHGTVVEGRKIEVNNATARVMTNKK
Oligonucleotide	RBNS enrichment (R)
AGGGUCUGGUCCCAGUUCUGACUCGGCCAUUCUUACAGCUCUUUCUGGCUUUGAGUUUGCUUGUGGAAUUUCCUGGGCAGUUGUGUUAAAUCCGCCAGGUCACGUGCAGA	0.378
GGCGUGACCCUCUUGUGAAGUACUGGUUCUGUUUCCUGAUUCCUUUUGCACUCCUCCAUCCCACCUGUGAGUGGGAGUUUACCUGUUACCCUGUAAUUAAAAACAAAGGC	0.662
UUGUAUGUUGUAUAUACCAUUCUAUUAAGAAACAUGUCCACUGUGCUUUCAAACAUAGAUAAAGCAUGAUAAAGAUUAUUAUUUAAGAUAUACUUGUAUUUAUACCUCAG	1.44
GACAACAGAUUGGAUCUGUAAUGUUGAUUAGUCUUUAGCCAUAACCACUACACUUUUAGAAAGACAGAAAAAUGUAAGAAUUUGUUUUUACCAUAAUGAGUCUUAAGUAG	0.341
CCUGGAGAGAGAAGUUGCUUGACGGAUGCCACUUGUCAGGACAGUAUGUGAGUGUCUGGAGACAGCAUAGCUGACCCCAAUCCCCCAGGGCUGAGGACCCCUCCAGGCCC	0.464
GUCAACAGGAGAGAAAGGGCCCGGCAACCCUCUGGCCCUAACCUGCUCUAGCCUGUACAUCCCACAUCCUCCGUCCGUCUGUCCAUCCAGGGUUUGUCUGUCCUGAAAGU	0.444
CAGUGGUUUCACAACAGUUCUCUUGUAUUUAUUUAUCAAUUAAAUCAAAUAAAAAUGAUUAUGUCAAUGCGUUUUCAGUUAUUUAAGUAACAGUUCUGUUUAAAGUGUGC	0.748
GUAUUUGAGAUGGGGCCUUUGGUAAGGGAAGUUUAGAUGAGGUCACGAGGGUAGGACCCUCAUGAUGGGAUGAGUCCCCUUACAAGACCUCUGGCUUGGGCCGGGCGUGG	1.58
CUGAAACAGCUGAGAGCCUAUUAGAGACCUGCUGCAAUGGCUGUCAGCCUUGGGAAAGGGGGACUCUUAGCUCUGUUGGUAUCACCGGGCCAUCUGGAAUGCAAGGUGAG	1.81
CUCUCACUUAGACUUUGCUGUCCUCUAUGCUAACUAUGUAGAAGCUGGCUUUAGAUUAAAUGACUAUGAAGCACAAUGACAUUCUGUGGACUAAAAGUUUUUUUGUAUUU	0.837
AAGAUAGUCCUCAGUGAAAACAGGCUAUCUCCUCCUGGGUCAUCUCAGGUCUCAGGCACCAGUCCAUGGGUGGUGUUCUGUGAACCCCAUCUCUAAUGCCUUUAAAAGGC	0.207
GUCCACCCUUCUCAUGUGACAGAUGGGGAAACUGAGGCCUUGAGAAGGAAAAAGGCUAAUCUAAGUUCCUGCGGGCAGUGGCAUGACUGGAGCACAGCCUCCUGCCUCCC	1.08

Set 2
Target: Sal-like protein 4, full length isoform B (SALL4, Homo sapiens, UniProt Q9UJQ4-2, residues 1-616)
Technique: universal PBM
Form: double-stranded DNA, one strand shown
Matrix: in vitro
Tested at: not given
Notes: 8-mer, flanks averaged, mean of replicates
Reading: higher = stronger binding
Residues (chain): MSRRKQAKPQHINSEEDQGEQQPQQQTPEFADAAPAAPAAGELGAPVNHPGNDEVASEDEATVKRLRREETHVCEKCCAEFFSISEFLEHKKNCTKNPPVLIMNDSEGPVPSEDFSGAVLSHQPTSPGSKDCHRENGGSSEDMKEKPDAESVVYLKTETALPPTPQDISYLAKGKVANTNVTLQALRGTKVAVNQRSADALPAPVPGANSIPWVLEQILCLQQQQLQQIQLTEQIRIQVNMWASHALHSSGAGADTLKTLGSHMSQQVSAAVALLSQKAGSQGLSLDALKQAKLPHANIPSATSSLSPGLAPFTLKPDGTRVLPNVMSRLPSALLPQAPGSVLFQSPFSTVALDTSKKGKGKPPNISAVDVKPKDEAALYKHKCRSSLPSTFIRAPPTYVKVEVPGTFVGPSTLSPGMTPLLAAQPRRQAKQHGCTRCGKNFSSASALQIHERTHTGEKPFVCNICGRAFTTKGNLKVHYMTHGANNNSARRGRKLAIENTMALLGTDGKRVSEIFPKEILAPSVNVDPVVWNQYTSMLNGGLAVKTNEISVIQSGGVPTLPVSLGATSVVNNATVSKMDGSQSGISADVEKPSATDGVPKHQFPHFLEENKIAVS
Oligonucleotide	E-score
ACGCGCAA	-0.0445
ATCTCAAC	0.157
TTCCAAAA	0.261
TCCGTCAA	0.0543
ATATAAAA	0.356
GGATTTGA	0.0181
TCCAAACA	0.0357
ATAGTTAG	0.0965
ATGAGAAT	0.11
CGGTGGCC	-0.376
GAGGCACA	-0.0571
CCCATACG	-0.0822
ACTTACAT	0.158
CAGACGCC	-0.274
GCAGCATA	-0.0423
ATGAGTGG	-0.0708
CAGGCTAA	-0.193
GCACTCGA	-0.169
AAGAGTGC	-0.149
CTATGGGA	0.024
AATGCTTG	-0.0477
ATGCGTTC	0.0575
GACTCTAC	-0.179
CTCGAGAC	-0.0129
AATGTACT	0.171

Set 3
Target: FOXO3, forkhead domain (mouse, UniProt Q9WVH4, residues 31-263)
Sequence of UniProt Q9WVH4 (31-263, looked up): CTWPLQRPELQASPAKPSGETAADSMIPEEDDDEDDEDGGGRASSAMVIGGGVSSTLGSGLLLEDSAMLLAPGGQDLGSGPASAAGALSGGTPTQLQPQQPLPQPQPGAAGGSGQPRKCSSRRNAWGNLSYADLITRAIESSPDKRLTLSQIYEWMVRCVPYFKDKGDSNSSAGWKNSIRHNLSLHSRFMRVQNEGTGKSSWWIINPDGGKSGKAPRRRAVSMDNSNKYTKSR
Technique: protein-binding microarray
Form: hairpin DNA
Matrix: in vitro
Tested at: not given
Notes: whole hairpin DNA, median over replicate spots
Relative to: not given
Reading: higher = stronger binding
Oligonucleotide	median fluorescence [a.u.]
GAGGCCATGTACGCAACGCCTCCTGGCGTTGCGTACATGGCCTCACACTC (5mC at 12 32)	4650
GAGGCCATGTGACCAACGCCTCCTGGCGTTGGTCACATGGCCTCACACTC (5mC at 34)	4280
GAGGCCATGCAATCAACGCCTCCTGGCGTTGATTGCATGGCCTCACACTC	4410
GAGGCCATGCGAACAACGCCTCCTGGCGTTGTTCGCATGGCCTCACACTC (5mC at 10)	4470
GAGGCCATGTAAACACGGCCTCCTGGCCGTGTTTACATGGCCTCACACTC (5mC at 28)	4790
GAGGCCATGTAAACAAGGCCTCCTGGCCTTGTTTACATGGCCTCACACTC	4570
GAGGCCATGCAAACGACGCCTCCTGGCGTCGTTTGCATGGCCTCACACTC (5mC at 30)	4750
GAGGCCATGTAAATAACGCCTCCTGGCGTTATTTACATGGCCTCACACTC	4150
GAGGCCATGTAAACACCGCCTCCTGGCGGTGTTTACATGGCCTCACACTC	5190
GAGGCCAGGTAACCAACGCCTCCTGGCGTTGGTTACCTGGCCTCACACTC	4260
GAGGCCATGTAACCCACGCCTCCTGGCGTGGGTTACATGGCCTCACACTC (5mC at 15)	4130
GAGGCCATGCAAACAACGCCTCCTGGCGTTGTTTGCATGGCCTCACACTC (5mC at 14)	4980
GAGGCCATGTAACCACGGCCTCCTGGCCGTGGTTACATGGCCTCACACTC (5mC at 16)	3880
GAGGCCATCGAAACAACGCCTCCTGGCGTTGTTTCGATGGCCTCACACTC (5mC at 9)	4170
GAGGCCATGTCACCAACGCCTCCTGGCGTTGGTGACATGGCCTCACACTC (5mC at 11)	4370
GAGGCCATGCAAACAGCGCCTCCTGGCGCTGTTTGCATGGCCTCACACTC	4890
GAGGCCATGTAAACCGCGCCTCCTGGCGCGGTTTACATGGCCTCACACTC (5mC at 15)	4330
GAGGCCATGTCGACAACGCCTCCTGGCGTTGTCGACATGGCCTCACACTC	4570
GAGGCCTTGTAACCAACGCCTCCTGGCGTTGGTTACAAGGCCTCACACTC	3690
GAGGCCCTGCAAACAACGCCTCCTGGCGTTGTTTGCAGGGCCTCACACTC	4940
GAGGCCATGTCGACAACGCCTCCTGGCGTTGTCGACATGGCCTCACACTC (5mC at 11)	4360

Set 4
Target: CCNB1, cyclin fold, Cln2 fusion (human)
Technique: yeast growth competition, sequencing
Matrix: yeast
Notes: strong parent motif
Relative to: not given
Reading: higher = stronger binding
Starting sequence: DBF4 docking peptide (human); DDIVSKLVFDFVE; partner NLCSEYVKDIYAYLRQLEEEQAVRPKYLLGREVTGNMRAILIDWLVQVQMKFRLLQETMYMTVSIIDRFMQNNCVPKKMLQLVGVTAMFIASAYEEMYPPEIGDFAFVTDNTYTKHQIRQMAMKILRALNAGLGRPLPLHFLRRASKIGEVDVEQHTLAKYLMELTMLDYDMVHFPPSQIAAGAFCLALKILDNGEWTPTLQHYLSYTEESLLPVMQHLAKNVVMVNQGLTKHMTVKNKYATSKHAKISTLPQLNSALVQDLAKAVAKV
Substitution	normalised enrichment score
DDIVSKLAFDFVE [V8A]	0.167
DDIVSKLVFAFVE [D10A]	0.658
DDIASKLVFDFVE [V4A]	0.487
DDIVSKLVFDAVE [F11A]	1.47
DDIVSKAVFDFVE [L7A]	-0.367
ADIVSKLVFDFVE [D1A]	1.19
DDIVSKLVADFVE [F9A]	-0.202

A few entries again (set 3):
Oligonucleotide	median fluorescence [a.u.]
GAGGCCATGTCGACAACGCCTCCTGGCGTTGTCGACATGGCCTCACACTC (5mC at 11)	4360
GAGGCCATGTAACCACGGCCTCCTGGCCGTGGTTACATGGCCTCACACTC (5mC at 16)	3880
GAGGCCATGCAAACAACGCCTCCTGGCGTTGTTTGCATGGCCTCACACTC (5mC at 14)	4980
GAGGCCATCGAAACAACGCCTCCTGGCGTTGTTTCGATGGCCTCACACTC (5mC at 9)	4170
GAGGCCATGCGAACAACGCCTCCTGGCGTTGTTCGCATGGCCTCACACTC (5mC at 10)	4470
